Measured values gathered from unrelated publications.
Protocols differ between the studies behind these lines. ± gives the spread as reported. Ends that are not written are not given here. No end group written: not given here.
T1: NR1I2/RXRA (Homo sapiens); chain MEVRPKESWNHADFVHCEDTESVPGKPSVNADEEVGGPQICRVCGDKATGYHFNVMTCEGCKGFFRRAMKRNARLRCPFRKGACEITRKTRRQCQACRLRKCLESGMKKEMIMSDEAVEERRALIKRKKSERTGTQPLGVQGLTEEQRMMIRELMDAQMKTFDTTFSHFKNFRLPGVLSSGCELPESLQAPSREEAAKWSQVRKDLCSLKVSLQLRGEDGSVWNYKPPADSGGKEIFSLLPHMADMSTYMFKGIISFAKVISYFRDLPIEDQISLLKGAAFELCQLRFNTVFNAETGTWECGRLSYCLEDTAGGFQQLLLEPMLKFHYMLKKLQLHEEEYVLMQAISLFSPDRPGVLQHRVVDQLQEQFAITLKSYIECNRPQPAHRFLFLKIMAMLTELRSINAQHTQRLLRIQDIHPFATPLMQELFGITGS; chain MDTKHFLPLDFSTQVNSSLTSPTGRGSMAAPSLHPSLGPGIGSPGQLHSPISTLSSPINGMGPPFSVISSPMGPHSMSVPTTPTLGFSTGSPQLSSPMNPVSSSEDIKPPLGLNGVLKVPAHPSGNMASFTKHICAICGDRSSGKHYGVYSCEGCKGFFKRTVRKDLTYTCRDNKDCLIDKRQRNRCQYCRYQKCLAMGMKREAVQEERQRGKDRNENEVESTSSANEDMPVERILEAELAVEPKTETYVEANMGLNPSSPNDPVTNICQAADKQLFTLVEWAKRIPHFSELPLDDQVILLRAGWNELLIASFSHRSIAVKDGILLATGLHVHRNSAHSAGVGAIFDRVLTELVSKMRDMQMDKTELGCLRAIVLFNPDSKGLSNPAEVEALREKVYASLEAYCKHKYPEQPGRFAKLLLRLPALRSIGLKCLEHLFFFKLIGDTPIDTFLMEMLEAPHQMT
B1: RRP6 128-634 (Saccharomyces cerevisiae, UniProt Q12149); sequence looked up; chain RVEKPQLKFKSPIDNSESHPFIPLLKEKPNALKPLSESLRLVDDDENNPSHYPHPYEYEIDHQEYSPEILQIREEIPSKSWDDSVPIWVDTSTELESMLEDLKNTKEIAVDLEHHDYRSYYGIVCLMQISTRERDYLVDTLKLRENLHILNEVFTNPSIVKVFHGAFMDIIWLQRDLGLYVVGLFDTYHASKAIGLPRHSLAYLLENFANFKTSKKYQLADWRIRPLSKPMTAYARADTHFLLNIYDQLRNKLIESNKLAGVLYESRNVAKRRFEYSKYRPLTPSSEVYSPIEKESPWKILMYQYNIPPEREVLVRELYQWRDLIARRDDESPRFVMPNQLLAALVAYTPTDVIGVVSLTNGVTEHVRQNAKLLANLIRDALRNIKNTNEEATPIPSSETKADGILLETISVPQIRDVMERFSVLCNSNISKSRAKPVTNSSILLGKILPREEHDIAYSKDGLPNKVKTEDIRIRAQNFKSALANLEDIIFEIEKPLVVPVKLEEIK
B2: UGT1A9 (Homo sapiens, UniProt O60656); chain GKLLVVPMDGSHWFTMRSVVEKLILRGHEVVVVMPEVSWQLGRSLNCTVKTYSTSYTLEDLDREFKAFAHAQWKAQVRSIYSLLMGSYNDIFDLFFSNCRSLFKDKKLVEYLKESSFDAVFLDPFDNCGLIVAKYFSLPSVVFARGILCHYLEEGAQCPAPLSYVPRILLGFSDAMTFKERVRNHIMHLEEHLLCHRFFKNALEIASEILQTPVTEYDLYSHTSIWLLRTDFVLDYPKPVMPNMIFIGGINCHQGKPLPMEFEAYINASGEHGIVVFSLGSMVSEIPEKKAMAIADALGKIPQTVLWRYTGTRPSNLANNTILVKWLPQNDLLGHPMTRAFITHAGSHGVYESICNGVPMVMMPLFGDQMDNAKRMETKGAGVTLNVLEMTSEDLENALKAVINDKSYKENIMRLSSLHKDRPVEPLDLAVFWVEFVMRHKGAPHLRPAAHDLTWYQYHSLDVIGFLLAVVLTVAFITFKCCAYGYRKCLGKKGRVKKAHKSKTH
B3: LAG3 cytoplasmic tail 475-525 (Homo sapiens); also: AF647 label in some assays, position not given here; chain {H2N-H2N-H2N-H2N-H2N}-RRQWRPRRFSALEQGIHPPQAQSKIEELEQEPEPEPEPEPEPEPEPEPEQLC
B4: DIS3 1-1001 D171N/D551N (Saccharomyces cerevisiae, UniProt Q08162); chain MSVPAIAPRRKRLADGLSVTQKVFVRSRNGGATKIVREHYLRSDIPCLSRSCTKCPQIVVPDAQNELPKFILSDSPLELSAPIGKHYVVLDTNVVLQAIDLLENPNCFFDVIVPQIVLDEVRNKSYPVYTRLRTLCRDSDDHKRFIVFHNEFSEHTFVERLPNETINDRNNRAIRKTCQWYSEHLKPYDINVVLVTNDRLNREAATKEVESNIITKSLVQYIELLPNADDIRDSIPQMDSFDKDLERDTFSDFTFPEYYSTARVMGGLKNGVLYQGNIQISEYNFLEGSVSLPRFSKPVLIVGQKNLNRAFNGDQVIVELLPQSEWKAPSSIVLDSEHFDVNDNPDIEAGDDDDNNESSSNTTVISDKQRRLLAKDAMIAQRSKKIQPTAKVVYIQRRSWRQYVGQLAPSSVDPQSSSTQNVFVILMDKCLPKVRIRTRRAAELLDKRIVISIDSWPTTHKYPLGHFVRDLGTIESAQAETEALLLEHDVEYRPFSKKVLECLPAEGHDWKAPTKLDDPEAVSKDPLLTKRKDLRDKLICSIDPPGCVDINDALHAKKLPNGNWEVGVHIADVTHFVKPGTALDAEGAARGTSVYLVDKRIDMLPMLLGTDLCSLKPYVDRFAFSVIWELDDSANIVNVNFMKSVIRSREAFSYEQAQLRIDDKTQNDELTMGMRALLKLSVKLKQKRLEAGALNLASPEVKVHMDSETSDPNEVEIKKLLATNSLVEEFMLLANISVARKIYDAFPQTAMLRRHAAPPSTNFEILNEMLNTRKNMSISLESSKALADSLDRCVDPEDPYFNTLVRIMSTRCMMAAQYFYSGAYSYPDFRHYGLAVDIYTHFTSPIRRYCDVVAHRQLAGAIGYEPLSLTHRDKNKMDMICRNINRKHRNAQFAGRASIEYYVGQVMRNNESTETGYVIKVFNNGIVVLVPKFGVEGLIRLDNLTEDPNSAAFDEVEYKLTFVPTNSDKPRDVYVFDKVEVQVRSVMDPITSKRKAELLLK
B5: PAT1 422-796 S456E/S457E (Saccharomyces cerevisiae, UniProt P25644); chain KDVTDSLTNVDLASSGSSSTGSSAAAVASKQRRREEYAFNNGNGATNLNKSGGKKFILELIETVYEEILDLEANLRNGQQTDSTAMWEALHIDDSSYDVNPFISMLSFDKGIKIMPRIFNFLDKQQKLKILQKIFNELSHLQIIILSSYKTTPKPTLTQLKKVDLFQMIILKIIVSFLSNNSNFIEIMGLLLQLIRNNNVSFLTTSKIGLNLITILISRAALIKQDSSRSNILSSPEISTWNEIYDKLFTSLESKIQLIFPPREYNDHIMRLQNDKFMDEAYIWQFLASLALSGKLNHQRIIIDEVRDEIFATINEAETLQKKEKELSVLPQRSQELDTELKSIIYNKEKLYQDLNLFLNVMGLVYRDGEISELK
B6: BAK1 26-225 F60A/H61A (Arabidopsis thaliana, UniProt Q94F62); sequence looked up; chain NAEGDALSALKNSLADPNKVLQSWDATLVTPCTWAAVTCNSDNSVTRVDLGNANLSGQLVMQLGQLPNLQYLELYSNNITGTIPEQLGNLTELVSLDLYLNNLSGPIPSTLGRLKKLRFLRLNNNSLSGEIPRSLTAVLTLQVLDLSNNPLTGDIPVNGSFSLFTPISFANTKLTPLPASPPPPISPTPPSPAGSNRITG
B7: BMP2 mature (Homo sapiens, UniProt P12643); sequence looked up; chain QAKHKQRKRLKSSCKRHPLYVDFSDVGWNDWIVAPPGYHAFYCHGECPFPLADHLNSTNHAIVQTLVNSVNSKIPKACCVPTELSAISMLYLDENEKVVLKNYQDMVVEGCGCR
UniProt P46948, sequence (whole entry, unmodified, looked up): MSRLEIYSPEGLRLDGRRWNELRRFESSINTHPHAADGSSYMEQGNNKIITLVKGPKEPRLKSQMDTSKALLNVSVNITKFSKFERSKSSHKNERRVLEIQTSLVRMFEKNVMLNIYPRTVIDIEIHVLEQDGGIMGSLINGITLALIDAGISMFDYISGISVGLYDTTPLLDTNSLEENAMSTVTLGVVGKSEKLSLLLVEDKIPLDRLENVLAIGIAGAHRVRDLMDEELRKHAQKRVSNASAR
UniProt Q99767, sequence (whole entry, unmodified, looked up): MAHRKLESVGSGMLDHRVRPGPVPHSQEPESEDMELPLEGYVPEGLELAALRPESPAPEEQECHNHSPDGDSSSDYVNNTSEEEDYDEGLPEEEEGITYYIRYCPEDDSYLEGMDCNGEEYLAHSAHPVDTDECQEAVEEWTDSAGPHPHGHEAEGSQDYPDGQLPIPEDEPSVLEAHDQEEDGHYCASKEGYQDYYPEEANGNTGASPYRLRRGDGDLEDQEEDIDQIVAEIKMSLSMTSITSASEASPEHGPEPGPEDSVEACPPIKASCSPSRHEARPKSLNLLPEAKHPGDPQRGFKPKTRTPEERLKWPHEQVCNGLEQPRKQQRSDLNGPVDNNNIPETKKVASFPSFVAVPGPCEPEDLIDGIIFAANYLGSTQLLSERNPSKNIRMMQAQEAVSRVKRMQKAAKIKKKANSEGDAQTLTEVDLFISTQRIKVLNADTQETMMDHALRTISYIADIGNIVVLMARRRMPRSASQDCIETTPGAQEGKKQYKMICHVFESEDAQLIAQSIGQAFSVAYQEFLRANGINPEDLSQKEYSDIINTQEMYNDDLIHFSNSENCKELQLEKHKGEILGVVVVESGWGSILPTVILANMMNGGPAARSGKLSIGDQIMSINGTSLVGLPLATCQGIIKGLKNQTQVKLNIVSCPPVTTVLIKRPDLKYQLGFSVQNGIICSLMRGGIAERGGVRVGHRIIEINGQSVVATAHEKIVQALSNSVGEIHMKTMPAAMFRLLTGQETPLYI

B1 (RRP6 128-634) — binding (Exo9 K132E/R206D/W278A (Saccharomyces cerevisiae, UniProt P46948); reconstitution and purification): binds
GRRYADMTSIFDFMLN (POL1 1453-1468 V1457A (Saccharomyces cerevisiae, UniProt P13382); sequence looked up) — binding (PRI1/PRI2 PRI1 1-409, PRI2 49-513 del382-384 (Saccharomyces cerevisiae); pull-down; peptide; 2 h, pH 7.0, 4 °C): binds
B2 (UGT1A9) — Vmax/Km (O=c1cc(-c2ccc(O)c(O)c2)oc2ccc(O)cc12; steady-state kinetics; pH 7.4, 37 °C): 3450 µL/min/mg
GAGASAEEKH — competition of transducin alpha binding (transducin alpha binding to UNC119, GST pulldown; peptide, bovine retina lysate; concentration not given): no effect
B3 (LAG3 cytoplasmic tail 475-525) — binding (CD8A cytoplasmic tail 209-227, TAMRA label (Homo sapiens); confocal microscopy; phase separation, planar lipid bilayers): binds
Insulin human — brain concentration (rat, thalamus/hypothalamus; intranasal, 20 µg per nostril, 15 min): 92.7 ± 29 pg/mg tissue
B4 (DIS3 1-1001 D171N/D551N) — binding (RRP45/SKI6/RRP43/RRP46/RRP42/MTR3/RRP4/RRP40/CSL4 Exo9 core 1-305 (Saccharomyces cerevisiae); crystal structure): binds
B5 (PAT1 422-796 S456E/S457E) — binding (LSM1/LSM2/LSM3/LSM4/LSM5/LSM6/LSM7 heptamer (Saccharomyces cerevisiae); pull-down): binds
{TAMRA}-NNGQNGYENPTYKFFEQMQN (APP peptide residues 754-770 (Homo sapiens); N-terminal TAMRA) — binding (APBA2 364-570 R455K/C483A/C501A/C566A (Homo sapiens, UniProt Q99767); fluorescence polarisation; peptide; added: TAMRA-labelled APP peptide 50 nM): binds
TCAGCTGAATGAACTTGCTGACCC (dsDNA) — Ki (T1, NR1I2/RXRA (Homo sapiens); fluorescence anisotropy competition; double-stranded DNA, one strand shown; added: DR3 FAM): 95.6 ± 4.7 nM
B6 (BAK1 26-225 F60A/H61A) — binding (HAESA/IDA HAESA ectodomain; IDA 15-621, hydroxyproline in IDA (Arabidopsis thaliana); ITC; pH 5.0, 25 °C): binds
{SUMO}-SSITKDMKGFKVVEVGLAMNTKKQIGDFFKNLNMAK (NUP159 1425-1460 (Saccharomyces cerevisiae, UniProt P40477); SUMO = SUMO protein tag (N-terminal fusion); sequence looked up) — binding (NUP82 1-452 C396S (Saccharomyces cerevisiae, UniProt P40368); SEC): binds
B7 (BMP2 mature) — binding (BMPR2 extracellular domain, Fc fusion 27-150, glycosylated (Homo sapiens, UniProt Q13873-1); pull-down): binds

A few entries again:
B5 (PAT1 422-796 S456E/S457E) — binding (LSM1/LSM2/LSM3/LSM4/LSM5/LSM6/LSM7 heptamer (Saccharomyces cerevisiae); pull-down): binds
